Experimental data of several laboratories.
Parts stem from different laboratories: compare values within a part only. Changes are numbered by the printed parent chain.

Series 1
Target: CCNE1, cyclin fold, Cln2 fusion (human)
Technique: yeast growth competition, sequencing
Medium: yeast
Notes: weak parent motif
Baseline: not given
Direction: higher = stronger binding
Starting sequence: RB1 docking peptide (human); PKPLKKLRFDIEG
| Change | normalised enrichment score |
| --- | --- |
| L7R | 0.453 |
| P1R | 0.243 |
| D10M | 1.49 |
| K6D | 0.427 |
| P1F | -0.207 |
| K2C | 0.612 |
| L4R | 0.215 |

Series 2
Target: Sal-like protein 4, full length isoform B (SALL4, Homo sapiens, UniProt Q9UJQ4-2, residues 1-616)
Technique: universal PBM
Molecule type: double-stranded DNA, one strand shown
Medium: in vitro
Tested at: not given
Notes: 8-mer, flanks averaged, mean of replicates
Direction: higher = stronger binding
| Sequence | E-score |
| --- | --- |
| AATCGTTA | 0.189 |
| CGGGATTC | -0.239 |
| GCATTCGA | -0.0298 |
| GGATGAGA | 0.0213 |
| AAGCCTCT | -0.0223 |
| CGGGACTC | -0.328 |

Series 3
Target: Centromere-binding protein 1, full length, His-tagged (CBF1, Saccharomyces cerevisiae, UniProt P17106, residues 1-351)
Sequence of UniProt P17106 (whole entry, looked up): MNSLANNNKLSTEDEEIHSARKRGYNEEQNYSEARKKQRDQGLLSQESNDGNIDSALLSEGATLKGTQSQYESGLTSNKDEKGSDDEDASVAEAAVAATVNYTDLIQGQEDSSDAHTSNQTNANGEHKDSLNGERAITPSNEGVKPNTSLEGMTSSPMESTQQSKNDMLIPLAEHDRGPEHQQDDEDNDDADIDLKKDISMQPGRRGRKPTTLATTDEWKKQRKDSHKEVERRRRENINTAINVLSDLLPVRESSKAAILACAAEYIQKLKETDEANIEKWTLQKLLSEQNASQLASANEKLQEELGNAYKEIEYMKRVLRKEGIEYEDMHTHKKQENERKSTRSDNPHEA
Technique: competition protein-binding microarray
Molecule type: double-stranded DNA, one strand shown
Medium: in vitro
Tested at: 2 µM
Notes: whole 60-bp probe, lowest competitor level
With: Pho4 competitor, 0.05 µM
Direction: higher = stronger binding
All sequences stand within: … GTCTTGATTCGCTTGACGCTGCTG
| Sequence | fluorescence intensity |
| --- | --- |
| GAAAATCATCCATTACACGTGTTTTCCTCTTTGATT | 1170 a.u. |
| TTGGTAGAATCTTTGCATGTGTGAGGTATGAATATT | 98.3 a.u. |
| TTGATGTACTTGTCTCACGTGGAAGCAACCATTTTG | 887 a.u. |
| GATTCTCTCCTCGACCACGGGGGGCAACTCTGCCTG | 108 a.u. |
| CGTCCTAGTGATTGGTCTGTGGGTGCCATGAGGAAG | 85.7 a.u. |
| GAATTTACTAACGAACTCGTGTTCCGGACCGCTGGC | 96.4 a.u. |
| CCGTTCACCACTTTGCATGTGCTCTCAAGTACGGCC | 146 a.u. |

Single results of other studies
| Substance | target | assay | test system | setting | scale | endpoint | result |
| --- | --- | --- | --- | --- | --- | --- | --- |
| PhoQ, residues 284 288 289 292 302 303 GANMMA | PhoP, residues 12 14 15 18 19 SEGLL (Escherichia coli, UniProt P23836) | Sort-seq, measured: YFP reporter | E. coli | PhoQ-PhoP variant library, with: 10 µM Mg2+ | baseline: high Mg2+ state, higher = stronger signaling | fold induction | 13.8 |

For quick reference, copied from above (series 2):
| Sequence | E-score |
| --- | --- |
| AAGCCTCT | -0.0223 |
| CGGGACTC | -0.328 |
